{"data": "Measured values of several laboratories", "note": "Each numbered part is a random draw from the data of one study; scales do not carry over between parts."}
{"data": "Block 1", "target": "RING finger protein unkempt homolog, zinc fingers 1-6, GST-SBP tag (UNK, Homo sapiens, UniProt Q9C0B0, residues 30-357)", "method": "RNA Bind-n-Seq", "form": "RNA", "matrix": "in vitro", "concentration": "not given", "notes": "RNA with constant flanks, human and mouse sites, ends assumed", "relative to": "input RNA pool", "direction": "higher = stronger binding", "chain of UniProt Q9C0B0 (30-357, looked up)": "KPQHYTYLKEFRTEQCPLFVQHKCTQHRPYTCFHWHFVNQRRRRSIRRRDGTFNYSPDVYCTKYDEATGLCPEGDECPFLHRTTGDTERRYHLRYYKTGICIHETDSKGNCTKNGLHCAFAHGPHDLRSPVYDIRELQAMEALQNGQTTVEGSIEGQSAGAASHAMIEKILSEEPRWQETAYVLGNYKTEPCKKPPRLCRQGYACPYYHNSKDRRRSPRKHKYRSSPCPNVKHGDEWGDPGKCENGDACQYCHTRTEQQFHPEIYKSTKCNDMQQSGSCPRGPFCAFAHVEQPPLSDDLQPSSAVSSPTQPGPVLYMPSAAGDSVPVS"}
{"Sequence": "GGGAGUUCUACAGUCCGACGAUCAAUCUCUGGGAACACUAUUAUAAAGAAGGCCAAGCUAUUAUUUUUGUCAUUGAUAGUAGUGAUAGAUUAAGAAUGGUUGUGGCCAAAGAAGAACUCGAUACUCUUCUGAAUCAUCCAGAUCAACAGAGGAUUGAGCAUCA", "bound/input enrichment [ratio]": 0.129}
{"Sequence": "GGGAGUUCUACAGUCCGACGAUCUACUACUAUGAUGGUGAUAUUGGCAAUUAUUAUUAUGGCCAGGGUCAUCCCAUGAAGCCUCAUAGAAUCCGGAUGACUCAUAACUUGCUGCUAAAUUAUGGUUUAUACCGAAAAAUGGAACAACAGAGGAUUGAGCAUCA", "bound/input enrichment [ratio]": 0.147}
{"Sequence": "GGGAGUUCUACAGUCCGACGAUCACUCAGUACCUUGGUUUGUCCCAACUGAAUAAGAGUUUGUAUUGUGUGUGUGUUCCUUGAAACCAAUGAUUUUCAAACUUUACAGCUUCAGAAUCACCCAGAGGGCUUGUUAAGACACUACAACAGAGGAUUGAGCAUCA", "bound/input enrichment [ratio]": 0.228}
{"Sequence": "GGGAGUUCUACAGUCCGACGAUCCCUGACAGUAUGCUGGCCCACAUGUUUAAGGACAAAGGUGUCUGGGGAAAUAAGCAAGAUCAUAGAGGAGCUUUCUUAAUUGACCGAAGUCCUGAGUACUUCGAACCCAUUUUGAACUACCAACAGAGGAUUGAGCAUCA", "bound/input enrichment [ratio]": 0.244}
{"data": "Block 2", "target": "Replicase polyprotein 1ab, polymerase (rep, Severe acute respiratory syndrome coronavirus 2, UniProt P0DTD1)", "observed": "enzyme activity", "action": "inhibitor", "concentration": "20 µM"}
{"SMILES": "CCOC(=O)[C@H](CCc1ccccc1)N[C@H]1CS[C@H](c2cccs2)CN(CC(=O)O)C1=O", "inhibition [%]": -5.93}
{"SMILES": "N[C@@H](C[C@@H](F)C(=O)O)C(=O)O (racemic)", "inhibition [%]": -0.6}
{"SMILES": "O=C(O)[C@@H]1C[C@@H](C2CCCCC2)CN1C(=O)CP(=O)(O)CCCCc1ccccc1", "inhibition [%]": 7.24}
{"SMILES": "CC(C)Oc1ccc(Cc2ccc(NC3=NCCN3)cc2)cc1", "inhibition [%]": -4.85}
{"SMILES": "CC[C@H](C)n1cc(C)c2c(C(=O)NCc3c(C)cc(C)[nH]c3=O)cc(-c3ccc(N4CCNCC4)nc3)cc21", "inhibition [%]": 5.98}
{"SMILES": "N#C[C@@H]1C[C@@H]2C[C@@H]2N1C(=O)[C@@H](N)C12CC3CC(CC(O)(C3)C1)C2", "inhibition [%]": 1.26}
{"SMILES": "CC(C)(C(=O)O)c1ccc(C(=O)CCCN2CCC(OC(c3ccccc3)c3ccccc3)CC2)cc1", "inhibition [%]": 0.15}
{"SMILES": "CC(C)CC(=O)Nc1n[nH]c2c1CN(C(=O)C1CCN(C)CC1)C2(C)C", "inhibition [%]": 0.85}
{"SMILES": "Oc1c(Cl)cc(Cl)cc1Sc1cc(Cl)cc(Cl)c1O", "inhibition [%]": 3.89}
{"SMILES": "CN(C(=O)c1ccc(F)cc1C(F)(F)F)C1CCN(c2nnc(-c3ccnn3C)c3ccccc23)CC1", "inhibition [%]": 4.01}
{"SMILES": "CCCCCOc1c(OC)ccc2cc(C(=O)NCc3ccc4c(c3)OCO4)c(=O)[nH]c12", "inhibition [%]": -1.87}
{"SMILES": "CC(C)(Oc1ccc(Cl)cc1)C(=O)N1CSCC1C(=O)O (centres unmarked)", "inhibition [%]": 1.38}
{"SMILES": "CN1CCCCC1Cn1cc(C(=O)c2cc([N+](=O)[O-])ccc2I)c2ccccc21 (centres unmarked)", "inhibition [%]": -1.63}
{"SMILES": "NC(=O)c1nc(Nc2ccccc2)sc1NC(=O)C1CCCCC1", "inhibition [%]": -2.23}
{"SMILES": "CN[C@@H]1CCc2[nH]c3ccc(C(N)=O)cc3c2C1", "inhibition [%]": 0.77}
{"SMILES": "CCNC(=O)[C@@H]1CCCN1C(=O)[C@H](CCCNC(=N)N)NC(=O)[C@H](CC(C)C)NC(=O)[C@@H](CC(C)C)NC(=O)[C@H](Cc1ccc(O)cc1)NC(=O)[C@H](CO)NC(=O)[C@H](Cc1c[nH]c2ccccc12)NC(=O)[C@H](Cc1c[nH]cn1)NC(=O)[C@@H]1CCC(=O)N1", "inhibition [%]": -0.24}
{"SMILES": "CC(C)CCN1c2nc(Nc3cc(F)c(O)c(F)c3)ncc2N(C)C(=O)C1C (centres unmarked)", "inhibition [%]": -1.61}
{"SMILES": "C=CCSCC1Nc2cc(Cl)c(S(N)(=O)=O)cc2S(=O)(=O)N1 (centres unmarked)", "inhibition [%]": 0.93}
{"SMILES": "C[C@H]([C@@H](O)c1ccc(O)cc1)N1CCC(Cc2ccccc2)CC1 (racemic)", "inhibition [%]": 1.85}
{"SMILES": "CC(C)(C)NCC(O)c1cc(O)cc(O)c1 (centres unmarked)", "inhibition [%]": 17.6}
{"SMILES": "Cc1sc2c(c1C)C(c1ccc(Cl)cc1)=N[C@@H](CC(N)=O)c1nnc(C)n1-2", "inhibition [%]": 0.91}
{"SMILES": "NCCS", "inhibition [%]": 0.7}
{"SMILES": "CCN(CC)c1ccc(/C=N/NC(=O)c2ccc(O)cc2)cc1", "inhibition [%]": -2.02}
{"SMILES": "O=C(Nc1ccccc1)N1CCC(Cc2cnc3ccccc3c2)CC1", "inhibition [%]": 8.05}
{"SMILES": "CC(C)N(CCCNC(=O)Nc1ccc(C(C)(C)C)cc1)C[C@H]1O[C@@H](n2ccc3c(N)ncnc32)[C@H](O)[C@@H]1O", "inhibition [%]": 1.78}
{"data": "Block 3", "target": "Sal-like protein 4, full length isoform B (SALL4, Homo sapiens, UniProt Q9UJQ4-2, residues 1-616)", "method": "universal PBM", "form": "double-stranded DNA, one strand shown", "matrix": "in vitro", "concentration": "not given", "notes": "8-mer, flanks averaged, mean of replicates", "direction": "higher = stronger binding"}
{"Sequence": "GATAAAGC", "E-score": 0.103}
{"Sequence": "ATAACTCA", "E-score": 0.305}
{"Sequence": "GAAGGGCA", "E-score": -0.194}
{"Sequence": "CAAGGATA", "E-score": 0.0915}
{"Sequence": "AACAGGCG", "E-score": -0.177}
{"Sequence": "CGGACTTA", "E-score": -0.0881}
{"Sequence": "CATTAGCG", "E-score": -0.0518}
{"Sequence": "CTAGGTCA", "E-score": -0.00081}
{"data": "Block 4", "target": "Centromere-binding protein 1, full length, N-terminal tag (CBF1, Saccharomyces cerevisiae, UniProt P17106, residues 1-351)", "method": "protein-binding microarray", "form": "double-stranded DNA, one strand shown", "matrix": "in vitro", "concentration": "0.8 µM", "notes": "whole 60-bp probe, no competitor", "direction": "higher = stronger binding", "chain of UniProt P17106 (whole entry, looked up)": "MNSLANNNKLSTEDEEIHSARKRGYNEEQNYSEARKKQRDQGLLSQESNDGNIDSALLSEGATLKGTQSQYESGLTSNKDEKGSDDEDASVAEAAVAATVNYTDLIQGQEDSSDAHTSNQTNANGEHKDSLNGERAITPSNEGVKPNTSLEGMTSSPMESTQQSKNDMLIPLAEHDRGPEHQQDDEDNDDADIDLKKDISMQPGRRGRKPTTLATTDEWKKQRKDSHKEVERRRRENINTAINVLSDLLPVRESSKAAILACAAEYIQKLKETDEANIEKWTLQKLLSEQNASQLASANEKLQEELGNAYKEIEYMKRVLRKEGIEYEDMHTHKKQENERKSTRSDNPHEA"}
{"Sequence": "GAACGTTCTTTTTTTCGCGTGCTGTGCAAGAAATAGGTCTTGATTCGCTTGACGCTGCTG", "fluorescence intensity": "589 a.u."}
{"Sequence": "GAAAAAGCCTATTGCCATCACGTGGCAAGCCAGTAGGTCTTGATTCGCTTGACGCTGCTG", "fluorescence intensity": "7650 a.u."}
{"Sequence": "CTATAGCGCAAAAGTCACCTGGGTGGCGTTTTCTTCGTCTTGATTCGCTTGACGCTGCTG", "fluorescence intensity": "850 a.u."}
{"Sequence": "CTATCTGCAATAAACCACATGGCTACCGCACTTTTCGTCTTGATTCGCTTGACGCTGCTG", "fluorescence intensity": "652 a.u."}
{"Sequence": "GAAAAGGTTCAACATGTGATAGTAGCTCTACCGTAGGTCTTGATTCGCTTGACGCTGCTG", "fluorescence intensity": "1370 a.u."}
{"data": "Block 5", "cell line": "HEK-293T", "observed": "pseudovirus infection", "organism": "VSV pseudotyped with SARS-CoV-2 spike", "concentration": "10 µM", "time": "16 h", "relative to": "vehicle-treated"}
{"SMILES": "C[C@]12CC[C@H](O)CC1=CC[C@@H]1[C@@H]2CC[C@]2(C)C(c3cccnc3)=CC[C@@H]12", "GFP-positive cells": "91.3%"}
{"SMILES": "CCOC(=O)c1ccc(C#Cc2ccc3c(c2)C(C)(C)CCS3)nc1", "GFP-positive cells": "157%"}
{"SMILES": "CC(=O)N[C@H]1[C@H]([C@H](O)[C@H](O)CO)OC(C(=O)O)=C[C@@H]1N=C(N)N", "GFP-positive cells": "84.4%"}
{"SMILES": "Cc1ccc(C(=O)c2ccc(CC(=O)O)n2C)cc1", "GFP-positive cells": "82.8%"}
{"data": "Block 6", "target": "Replicase polyprotein 1ab, main protease (rep, Severe acute respiratory syndrome coronavirus 2, UniProt P0DTD1)", "observed": "enzyme activity", "action": "inhibitor", "concentration": "20 µM", "notes": "primary screen"}
{"SMILES": "Cc1cc(O)c2c(c1)C(=O)c1cccc(O)c1C2=O", "inhibition [%]": 31.1}
{"SMILES": "C[n+]1c2cc(N)ccc2cc2ccc(N)cc21.Nc1ccc2cc3ccc(N)cc3nc2c1", "inhibition [%]": 59}
{"SMILES": "COc1cc(C(=S)N2CCOCC2)cc(OC)c1OC", "inhibition [%]": 61.1}
{"SMILES": "O=c1cccc2cc(O)c(O)c(O)c2c1O", "inhibition [%]": 101}
{"note": "Repeated from above (block 6):"}
{"SMILES": "Cc1cc(O)c2c(c1)C(=O)c1cccc(O)c1C2=O", "inhibition [%]": 31.1}
{"SMILES": "C[n+]1c2cc(N)ccc2cc2ccc(N)cc21.Nc1ccc2cc3ccc(N)cc3nc2c1", "inhibition [%]": 59}
{"SMILES": "COc1cc(C(=S)N2CCOCC2)cc(OC)c1OC", "inhibition [%]": 61.1}
